{"data": "Measurements pooled from the literature", "note": "Parts stem from different laboratories: compare values within a part only.", "UniProt Q12866, sequence (whole entry, looked up)": "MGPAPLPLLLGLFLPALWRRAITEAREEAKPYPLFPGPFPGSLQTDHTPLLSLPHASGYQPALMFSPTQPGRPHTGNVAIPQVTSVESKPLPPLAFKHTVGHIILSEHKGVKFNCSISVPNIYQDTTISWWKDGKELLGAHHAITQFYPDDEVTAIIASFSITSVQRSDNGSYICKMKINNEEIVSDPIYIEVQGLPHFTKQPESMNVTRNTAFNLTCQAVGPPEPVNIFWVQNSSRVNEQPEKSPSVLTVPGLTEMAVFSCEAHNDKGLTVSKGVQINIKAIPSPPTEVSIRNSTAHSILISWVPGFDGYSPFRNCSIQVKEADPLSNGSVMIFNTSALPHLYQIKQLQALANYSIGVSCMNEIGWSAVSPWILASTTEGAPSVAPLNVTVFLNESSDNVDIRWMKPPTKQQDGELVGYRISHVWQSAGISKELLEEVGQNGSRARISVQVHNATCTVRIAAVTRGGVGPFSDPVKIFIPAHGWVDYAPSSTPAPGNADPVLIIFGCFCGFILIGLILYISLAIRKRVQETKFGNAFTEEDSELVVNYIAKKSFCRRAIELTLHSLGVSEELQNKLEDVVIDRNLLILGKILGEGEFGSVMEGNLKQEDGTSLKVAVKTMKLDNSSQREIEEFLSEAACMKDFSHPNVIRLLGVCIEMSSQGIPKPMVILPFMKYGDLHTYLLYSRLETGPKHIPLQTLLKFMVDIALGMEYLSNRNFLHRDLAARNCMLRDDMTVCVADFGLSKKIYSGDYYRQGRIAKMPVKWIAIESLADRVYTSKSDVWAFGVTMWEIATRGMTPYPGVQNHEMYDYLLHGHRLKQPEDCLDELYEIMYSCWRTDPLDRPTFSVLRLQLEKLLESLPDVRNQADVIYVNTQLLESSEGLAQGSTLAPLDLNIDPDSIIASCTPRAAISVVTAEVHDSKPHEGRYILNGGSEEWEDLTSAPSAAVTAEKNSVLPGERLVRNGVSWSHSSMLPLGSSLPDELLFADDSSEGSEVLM", "UniProt P07947, sequence (whole entry, looked up)": "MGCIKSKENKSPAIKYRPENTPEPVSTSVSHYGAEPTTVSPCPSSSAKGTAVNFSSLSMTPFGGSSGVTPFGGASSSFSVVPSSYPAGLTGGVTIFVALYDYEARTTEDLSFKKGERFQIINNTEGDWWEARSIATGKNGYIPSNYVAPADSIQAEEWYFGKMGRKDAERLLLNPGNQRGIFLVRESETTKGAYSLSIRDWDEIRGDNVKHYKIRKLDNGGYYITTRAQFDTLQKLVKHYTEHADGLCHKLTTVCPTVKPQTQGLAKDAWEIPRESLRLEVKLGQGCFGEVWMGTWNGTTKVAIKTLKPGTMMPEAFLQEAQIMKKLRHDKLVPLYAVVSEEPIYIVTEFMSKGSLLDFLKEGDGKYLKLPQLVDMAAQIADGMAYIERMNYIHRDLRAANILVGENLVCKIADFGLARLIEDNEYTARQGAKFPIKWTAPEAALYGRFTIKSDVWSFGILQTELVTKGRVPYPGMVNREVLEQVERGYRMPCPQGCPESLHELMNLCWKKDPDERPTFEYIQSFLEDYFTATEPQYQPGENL", "UniProt Q15349, sequence (whole entry, looked up)": "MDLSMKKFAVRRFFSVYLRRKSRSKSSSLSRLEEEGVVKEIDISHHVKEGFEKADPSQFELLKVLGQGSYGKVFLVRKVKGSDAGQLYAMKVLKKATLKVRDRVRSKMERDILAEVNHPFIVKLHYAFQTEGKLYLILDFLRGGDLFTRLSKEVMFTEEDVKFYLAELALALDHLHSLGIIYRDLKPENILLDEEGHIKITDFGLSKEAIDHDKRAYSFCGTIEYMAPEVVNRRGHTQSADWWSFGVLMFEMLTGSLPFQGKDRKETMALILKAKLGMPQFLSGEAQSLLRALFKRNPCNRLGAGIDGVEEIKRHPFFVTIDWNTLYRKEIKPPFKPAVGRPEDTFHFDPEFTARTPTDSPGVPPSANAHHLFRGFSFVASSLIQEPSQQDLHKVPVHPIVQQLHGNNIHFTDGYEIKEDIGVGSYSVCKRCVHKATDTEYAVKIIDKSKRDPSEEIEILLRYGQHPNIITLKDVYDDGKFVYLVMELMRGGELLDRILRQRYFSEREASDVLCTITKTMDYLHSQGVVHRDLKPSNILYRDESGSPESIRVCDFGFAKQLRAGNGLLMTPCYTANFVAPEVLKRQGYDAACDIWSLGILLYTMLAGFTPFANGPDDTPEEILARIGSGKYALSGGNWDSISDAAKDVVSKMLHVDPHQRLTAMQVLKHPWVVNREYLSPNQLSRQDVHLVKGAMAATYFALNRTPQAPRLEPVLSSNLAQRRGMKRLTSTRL", "UniProt Q9Y6M4, sequence (whole entry, looked up)": "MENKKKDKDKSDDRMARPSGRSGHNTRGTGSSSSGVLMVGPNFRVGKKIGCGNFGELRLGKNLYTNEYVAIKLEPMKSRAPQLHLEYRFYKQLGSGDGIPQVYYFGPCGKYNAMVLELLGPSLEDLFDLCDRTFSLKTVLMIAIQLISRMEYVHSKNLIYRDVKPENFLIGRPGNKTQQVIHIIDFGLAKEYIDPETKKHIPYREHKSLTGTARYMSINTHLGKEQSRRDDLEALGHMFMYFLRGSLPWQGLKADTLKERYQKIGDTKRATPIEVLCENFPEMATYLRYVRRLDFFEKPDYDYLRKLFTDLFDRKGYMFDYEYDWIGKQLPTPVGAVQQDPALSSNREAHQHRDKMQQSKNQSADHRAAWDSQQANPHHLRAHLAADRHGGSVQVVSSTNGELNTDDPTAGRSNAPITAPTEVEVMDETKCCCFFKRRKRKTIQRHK", "UniProt Q08345, sequence (whole entry, looked up)": "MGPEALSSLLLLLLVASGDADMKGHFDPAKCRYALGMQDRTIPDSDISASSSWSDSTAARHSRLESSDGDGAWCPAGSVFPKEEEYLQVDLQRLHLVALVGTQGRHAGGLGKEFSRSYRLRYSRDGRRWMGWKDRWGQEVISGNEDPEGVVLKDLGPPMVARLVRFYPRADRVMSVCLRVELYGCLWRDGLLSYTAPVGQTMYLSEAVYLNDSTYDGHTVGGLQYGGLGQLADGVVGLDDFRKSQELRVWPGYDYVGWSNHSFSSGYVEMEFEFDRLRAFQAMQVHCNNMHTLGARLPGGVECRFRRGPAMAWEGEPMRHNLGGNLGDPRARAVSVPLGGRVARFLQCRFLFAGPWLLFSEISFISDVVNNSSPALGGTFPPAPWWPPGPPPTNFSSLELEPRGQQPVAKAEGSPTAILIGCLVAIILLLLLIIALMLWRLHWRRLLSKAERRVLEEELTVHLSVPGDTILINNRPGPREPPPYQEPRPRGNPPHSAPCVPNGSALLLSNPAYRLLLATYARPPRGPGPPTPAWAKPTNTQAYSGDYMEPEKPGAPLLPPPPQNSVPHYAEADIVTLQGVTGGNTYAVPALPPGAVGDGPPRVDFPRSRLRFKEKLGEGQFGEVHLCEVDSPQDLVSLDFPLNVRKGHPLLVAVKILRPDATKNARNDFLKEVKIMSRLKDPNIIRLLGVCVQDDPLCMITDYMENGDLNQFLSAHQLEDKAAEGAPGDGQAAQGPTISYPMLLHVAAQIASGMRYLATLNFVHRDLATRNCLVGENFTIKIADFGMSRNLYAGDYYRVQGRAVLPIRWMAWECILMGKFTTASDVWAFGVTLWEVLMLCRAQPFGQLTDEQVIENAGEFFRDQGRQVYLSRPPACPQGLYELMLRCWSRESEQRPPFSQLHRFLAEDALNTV", "UniProt P30291, sequence (whole entry, looked up)": "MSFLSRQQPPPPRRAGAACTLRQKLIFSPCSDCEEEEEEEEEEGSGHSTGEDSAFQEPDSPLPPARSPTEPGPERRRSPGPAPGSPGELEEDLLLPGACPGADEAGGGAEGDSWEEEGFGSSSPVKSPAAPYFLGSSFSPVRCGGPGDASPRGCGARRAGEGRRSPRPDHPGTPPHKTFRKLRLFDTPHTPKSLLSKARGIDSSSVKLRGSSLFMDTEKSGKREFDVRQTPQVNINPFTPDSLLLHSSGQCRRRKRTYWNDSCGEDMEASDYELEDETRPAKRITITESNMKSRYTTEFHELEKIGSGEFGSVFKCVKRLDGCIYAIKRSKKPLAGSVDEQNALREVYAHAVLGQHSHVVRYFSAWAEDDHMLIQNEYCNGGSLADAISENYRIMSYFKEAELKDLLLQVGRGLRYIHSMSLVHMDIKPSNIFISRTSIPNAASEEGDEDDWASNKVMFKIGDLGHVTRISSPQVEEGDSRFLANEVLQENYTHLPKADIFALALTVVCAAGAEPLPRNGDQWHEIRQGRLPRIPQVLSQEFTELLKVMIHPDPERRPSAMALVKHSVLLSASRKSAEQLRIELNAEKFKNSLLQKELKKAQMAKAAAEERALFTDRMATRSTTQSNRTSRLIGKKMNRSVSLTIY"}
{"data": "Study 1", "Compound": "Cc1ccc(S(=O)(=O)/C=C/C#N)cc1", "effect on": "enzyme activity", "mode": "inhibitor", "concentration": "0.5 µM", "relative to": "control"}
{"target": "Fibroblast growth factor receptor 1 (FGFR1, Homo sapiens, UniProt P11362)", "remaining activity": "106%"}
{"target": "Macrophage-stimulating protein receptor (MST1R, Homo sapiens, UniProt Q04912)", "remaining activity": "113%"}
{"target": "Wee1-like protein kinase (WEE1, Homo sapiens, UniProt P30291)", "remaining activity": "96.4%"}
{"target": "Tyrosine-protein kinase Mer (MERTK, Homo sapiens, UniProt Q12866)", "remaining activity": "96.4%"}
{"target": "Serine/threonine-protein kinase Nek1 (NEK1, Homo sapiens, UniProt Q96PY6)", "remaining activity": "92.3%"}
{"target": "Mitogen-activated protein kinase kinase kinase 14 (MAP3K14, Homo sapiens, UniProt Q99558)", "remaining activity": "103%"}
{"target": "Ribosomal protein S6 kinase alpha-2 (RPS6KA2, Homo sapiens, UniProt Q15349)", "remaining activity": "100%"}
{"target": "Casein kinase I isoform gamma-3 (CSNK1G3, Homo sapiens, UniProt Q9Y6M4)", "remaining activity": "88.3%"}
{"target": "Tyrosine-protein kinase FRK (FRK, Homo sapiens, UniProt P42685)", "remaining activity": "91.6%"}
{"target": "Serine/threonine-protein kinase TAO2 (TAOK2, Homo sapiens, UniProt Q9UL54)", "remaining activity": "89.7%"}
{"target": "Tyrosine-protein kinase JAK3 (JAK3, Homo sapiens, UniProt P52333)", "remaining activity": "101%"}
{"target": "Rhodopsin kinase GRK7 (GRK7, Homo sapiens, UniProt Q8WTQ7)", "remaining activity": "92.6%"}
{"target": "MAP kinase-activated protein kinase 2 (MAPKAPK2, Homo sapiens, UniProt P49137)", "remaining activity": "93.7%"}
{"data": "Study 2", "SMILES": "O=C(NS(=O)(=O)c1ccc(NCC2CCOCC2)c([N+](=O)[O-])c1)c1ccc(N2CCN(Cc3ccc(C(F)(F)F)cc3-c3ccc(Cl)cc3)CC2)cc1Oc1cnc2[nH]ccc2c1", "effect on": "cell-free assay", "technique": "competition with immobilised ligand", "concentration": "1 µM"}
{"target": "Tyrosine-protein kinase Yes (YES1, Homo sapiens, UniProt P07947)", "remaining binding [%]": 100}
{"target": "Mast/stem cell growth factor receptor Kit (KIT, Homo sapiens, UniProt P10721, D816V)", "remaining binding [%]": 100}
{"target": "Dual specificity mitogen-activated protein kinase kinase 7 (MAP2K7, Homo sapiens, UniProt O14733)", "remaining binding [%]": 100}
{"target": "Epithelial discoidin domain-containing receptor 1 (DDR1, Homo sapiens, UniProt Q08345)", "remaining binding [%]": 100}
{"target": "Calcium/calmodulin-dependent protein kinase type II subunit alpha (CAMK2A, Homo sapiens, UniProt Q9UQM7)", "remaining binding [%]": 87}
{"data": "Study 3", "target": "Ras GTPase-activating protein-binding protein 1, C-terminal RGG region (G3BP1, Homo sapiens, UniProt Q13283)", "technique": "RNA Bind-n-Seq", "molecule type": "RNA", "medium": "in vitro", "concentration": "1 µM", "notes": "whole 134-nt RNA, ends assumed", "added": "150 mM KCl", "relative to": "input library", "direction": "higher = stronger binding", "all sequences stand within": "GGGAGUUCUACAGUCCGACGAUC … UGGAAUUCUCGGGUGUCAAGG", "UniProt Q13283, sequence (whole entry, looked up)": "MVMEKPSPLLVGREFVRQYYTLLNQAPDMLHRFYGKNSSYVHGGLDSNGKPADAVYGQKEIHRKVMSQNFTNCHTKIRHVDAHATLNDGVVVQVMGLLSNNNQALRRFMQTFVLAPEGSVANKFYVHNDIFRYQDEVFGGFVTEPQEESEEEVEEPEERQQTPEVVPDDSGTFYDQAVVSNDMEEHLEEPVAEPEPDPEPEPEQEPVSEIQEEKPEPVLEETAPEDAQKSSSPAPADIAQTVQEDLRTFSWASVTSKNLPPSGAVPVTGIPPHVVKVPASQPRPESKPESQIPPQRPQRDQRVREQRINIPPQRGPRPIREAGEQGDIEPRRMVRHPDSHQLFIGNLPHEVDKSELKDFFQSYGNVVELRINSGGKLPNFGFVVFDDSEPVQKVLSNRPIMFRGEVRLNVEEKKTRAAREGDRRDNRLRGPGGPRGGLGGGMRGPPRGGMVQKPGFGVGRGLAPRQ"}
{"Strand": "UAACUUUAGAGGAGGAUCUGAUGGAUAUGGCAGUGGACGUGGAUUUGGGGGUGGCUAUAAUGGGUAUGGAGGAGGACCUGGAGGUGGCAA", "log2 enrichment": 0.0531}
{"Strand": "AAGUCCUGUGCUACACAUCGUAUGUACCGAAUCGGAAAAGGGGAAAAGGGAAAAGGAAAGUAUUAUGUUACGCCGUUCGGAUCUGCACUU", "log2 enrichment": -1.36}
{"Strand": "CCUGUGCUACACAUCGUAUGUACCGAAUCGGGGUUUUUUGGGUUUUUUGGGGUUUUUUGGAAAGUAUUAUGUUACGCCGUUCGGAUCUGC", "log2 enrichment": -1.25}
{"Strand": "UCCUGUGCUACACAUCGUAUGUACCGAAUCGGGGCCCCCGGGGCCCCCGGGGCCCCCGGGAAAGUAUUAUGUUACGCCGUUCGGAUCUGC", "log2 enrichment": -1.97}
{"Strand": "ACCAUGCAGGUGGGCAUCUUUGGGAAGUGGGGCAAGGGGGGGAUAGGGAGGUGGGUAACACUUUGGGAACAGGUGGUCCCAGGUCGUUUC", "log2 enrichment": 2.07}
{"Strand": "UUGUGAGCUGCAAGCUAGGCUGCAGGCCCAGGAAGAACAGCAUCAGGAAGUCCAGAAGGCAAAAGAAGCAGACAUAGAGAAGCUGAACCA", "log2 enrichment": -1.94}
{"Strand": "CCUGUGCUACACAUCGUAUGUACCGAAUCGGGGUGGGGAAAAAAAGGGGAAAAAAAGGGGAAAGUAUUAUGUUACGCCGUUCGGAUCUGC", "log2 enrichment": -0.136}
{"Strand": "AGUCCUGUGCUACACAUCGUAUGUACCGAAUCGGGGUUUGGGGAAAAAGGGGAGGGGAAAGUAUUAUGUUACGCCGUUCGGAUCUGCACU", "log2 enrichment": 2.87}
{"data": "Study 4", "target": "Histone acetyltransferase KAT6A, winged helix 1, GST fusion (KAT6A, Homo sapiens, UniProt Q92794, residues 1-85)", "technique": "protein binding microarray", "molecule type": "double-stranded DNA, one strand shown", "medium": "in vitro", "concentration": "not given", "notes": "8-mer, flanks averaged, mean of 2 arrays, mostly near background", "relative to": "not given", "direction": "higher = stronger binding", "Residues (chain)": "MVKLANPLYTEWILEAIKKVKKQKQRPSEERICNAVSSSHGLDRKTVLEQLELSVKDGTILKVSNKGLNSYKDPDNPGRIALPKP"}
{"Strand": "CTTGTATC", "E-score": -0.148}
{"Strand": "CGTGCTGC", "E-score": 0.0405}
{"Strand": "CGGTTGCC", "E-score": 0.221}
{"Strand": "GCACATGA", "E-score": -0.0753}
{"Strand": "GCTTGCTA", "E-score": -0.119}
{"Strand": "ACGCGCCC", "E-score": 0.392}
{"Strand": "ACCAATGC", "E-score": 0.0586}
{"Strand": "CCAATCGA", "E-score": -0.278}
